Results pooled from the literature.
Numbered parts are unrelated; each lists some results of a single study.

Sample 1
Target: RING finger protein unkempt homolog, zinc fingers 1-6, GST-SBP tag (UNK, Homo sapiens, UniProt Q9C0B0, residues 30-357)
Chain of UniProt Q9C0B0 (30-357, looked up): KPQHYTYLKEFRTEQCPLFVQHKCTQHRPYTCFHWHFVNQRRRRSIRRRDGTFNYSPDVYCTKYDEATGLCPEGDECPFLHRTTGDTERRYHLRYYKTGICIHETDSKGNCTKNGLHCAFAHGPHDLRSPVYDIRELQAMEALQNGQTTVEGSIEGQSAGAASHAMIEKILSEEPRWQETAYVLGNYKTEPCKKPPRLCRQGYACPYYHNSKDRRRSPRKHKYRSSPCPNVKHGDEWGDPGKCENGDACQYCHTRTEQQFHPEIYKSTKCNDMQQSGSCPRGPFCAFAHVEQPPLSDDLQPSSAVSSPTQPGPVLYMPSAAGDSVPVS
Technique: RNA Bind-n-Seq
Molecule type: RNA
Matrix: in vitro
Concentration: not given
Notes: RNA with constant flanks, human-mouse chimeric sites, ends assumed
Baseline: input RNA pool
Reading: higher = stronger binding
Sequence	bound/input enrichment [ratio]
GGGAGUUCUACAGUCCGACGAUCGAGCCCAGCCGGCAGUUUGUAAAGGACUCAAUUCGGCUGGUUAAAAGAUGCACCAAACCCGACAGAAAAGAAUUCCAGAAGAUUGCCAUGGCAACAGCUAUAGGAUUUGCUAUCAUGGGACAACAGAGGAUUGAGCAUCA	0.196
GGGAGUUCUACAGUCCGACGAUCCUGAGGAUACCACUGAAGAGACCUUAAAAGGAGUCAUUGAGGGCUCUCGUUCGGGCAGAAUAGUCACUGAUCGGGAAACUGGUUCUUCCAAAGGGUUUGGUUUUGUAGACUUUAAUAGUGCAACAGAGGAUUGAGCAUCA	1.04
GGGAGUUCUACAGUCCGACGAUCGCUCCUCUUCCGCACUCAGCCUGGGGACUUUUGGCAAGGACCAGAAUCCAGCUUUCUUUUAAAACUCUCAGUGUAACUGUAUCCCGUGACAUUUCAUUUUUUUUAAAUAGUGUAUUUUUUCAACAGAGGAUUGAGCAUCA	2.71
GGGAGUUCUACAGUCCGACGAUCGUGACUGACAUUAAAAUUUCCCCUCAGCAAAGAAGUGCAGUAGUCACCAUAAUUCCAUCUGUGGUGAGUGCCAGUCAGAUUGUGGAGCUGGUCCCAGACCUCAGUUUAGAUACUGGGACUCAACAGAGGAUUGAGCAUCA	0.41

Sample 2
Target: Histone acetyltransferase KAT6A, both winged helices, GST fusion (KAT6A, Homo sapiens, UniProt Q92794, residues 1-181)
Technique: protein binding microarray
Molecule type: double-stranded DNA, one strand shown
Matrix: in vitro
Concentration: not given
Notes: 8-mer, flanks averaged, mean of 2 arrays, mostly near background
Baseline: not given
Reading: higher = stronger binding
Target sequence (chain): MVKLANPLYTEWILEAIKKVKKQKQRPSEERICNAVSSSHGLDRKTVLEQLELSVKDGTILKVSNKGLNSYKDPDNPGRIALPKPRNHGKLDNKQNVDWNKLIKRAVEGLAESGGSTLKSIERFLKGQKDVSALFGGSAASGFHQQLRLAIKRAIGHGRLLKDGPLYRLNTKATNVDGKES
Sequence	E-score
GGCGCAAC	0.15
GCATTCTA	-0.0924
TATCATCA	0.0393
GTCGTGAA	0.0722
CAACCAAC	-0.102
ATTCGTCC	0.0677

Sample 3
Target: TAR DNA-binding protein 43, full length, His tag (TARDBP, Homo sapiens, UniProt Q13148, residues 1-414)
Technique: RNA Bind-n-Seq
Molecule type: RNA
Matrix: in vitro
Concentration: 20 nM
Notes: 6-mer, flanks averaged, single round
Added: 150 mM KCl
Baseline: input library
Reading: higher = stronger binding
Sequence	6-mer enrichment (R)
GUGGUC	1.27
AGGACC	0.85
UAGGCA	0.826
UCCCCG	0.676
AAUUGC	0.631
UAGAUG	0.85
UCCAAG	0.709

Mixed results
Substance	target	test	system	conditions	how to read	endpoint	result
PhoQ, residues 284 288 289 292 302 303 SNGLAW	PhoP, residues 12 14 15 18 19 AGCRL (Escherichia coli, UniProt P23836)	Sort-seq, measured: YFP reporter	E. coli	PhoQ-PhoP variant library, added: 10 µM Mg2+	baseline: high Mg2+ state, higher = stronger signaling	fold induction	8.67
